Measured values gathered from unrelated publications.
Target: Amine oxidase [flavin-containing] B (MAOB, Homo sapiens, UniProt P27338)
UniProt P27338, sequence (whole entry, looked up): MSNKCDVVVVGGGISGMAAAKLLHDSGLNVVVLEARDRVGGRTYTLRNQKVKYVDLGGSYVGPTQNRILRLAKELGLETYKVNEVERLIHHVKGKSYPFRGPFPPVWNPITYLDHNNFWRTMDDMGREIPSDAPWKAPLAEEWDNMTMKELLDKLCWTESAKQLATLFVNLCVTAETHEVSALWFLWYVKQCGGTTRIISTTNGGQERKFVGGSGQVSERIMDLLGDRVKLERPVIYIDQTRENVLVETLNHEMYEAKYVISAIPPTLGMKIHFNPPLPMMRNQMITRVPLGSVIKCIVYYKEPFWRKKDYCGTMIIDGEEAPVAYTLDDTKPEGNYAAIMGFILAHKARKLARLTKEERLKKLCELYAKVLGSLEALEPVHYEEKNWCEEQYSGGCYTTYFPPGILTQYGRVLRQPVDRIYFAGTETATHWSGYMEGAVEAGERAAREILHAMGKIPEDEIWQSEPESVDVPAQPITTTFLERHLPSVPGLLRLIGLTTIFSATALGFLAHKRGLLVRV
Effect on: enzyme activity
Action: inhibitor

For `O=c1ccoc2ccc(OCCCN3CCOCC3)cc12`, the IC50 was 1180 nM (fluorescence).
The IC50 of `NNC(=O)c1ccc(-n2nc(-c3ccccc3O)nc2-c2ccccc2O)cc1` is reported as 130 nM (fluorescence).
`O=C(/C=C/c1ccccc1F)c1cc2ccccc2oc1=O` has an IC50 of 7760 nM.
For `O=C(Cc1ccccc1Nc1c(Cl)cccc1Cl)NNC(=S)Nc1ccc(Cl)c(Cl)c1`, the IC50 was 81 nM (fluorescence).
The IC50 of `CNC(=S)N/N=C/c1ccc(OCc2cccc(F)c2)cc1` is reported as 1680 nM (absorbance).
For `CC(=O)C1=C(C)NC(SCCCSc2nnc(Cc3ccccc3Nc3c(Cl)cccc3Cl)n2-c2ccc(Cl)c(Cl)c2)=NC1c1ccccc1` (stereo not drawn), the IC50 was 10100 nM (fluorescence).
The IC50 of `O=C1c2ccccc2N(Cc2cccc(Cl)c2)C12CCCC2` is reported as 2780 nM.
`CNC(=S)N/N=C/c1ccc(OCc2ccccc2)cc1` has an IC50 of 120 nM (absorbance).
The IC50 of `O=c1ccoc2ccc(OCCCCCN3CCCCCC3)cc12` is reported as 19900 nM (fluorescence).
`S=C(N/N=C/c1cccc(OCc2ccccc2)c1)Nc1ccccc1` has an IC50 of 460 nM (absorbance).
For `O=C1c2ccccc2N(Cc2ccccc2)C12CCCC2`, the IC50 was 12200 nM.
The IC50 of `O=C(/C=C/c1ccc(Br)cc1)c1cc2ccccc2oc1=O` is reported as 2500 nM.
For `NC(=O)N/N=C/c1ccc(OCc2ccccc2)cc1`, the IC50 was 120 nM (absorbance).
For `O=C(/C=C/c1ccc(F)cc1)c1cc2ccccc2oc1=O`, the IC50 was 3360 nM.
The IC50 of `COC(=O)c1ccc(-n2nc(-c3ccccc3O)nc2-c2ccccc2O)cc1` is reported as 19600 nM (fluorescence).
`N#Cc1ccc(CN2c3ccccc3C(=O)C23CCCC3)cc1` gave an IC50 of 1600 nM.
With `COc1cc(/C=C/C(=O)NC(C)C(N)=O)ccc1OCc1ccccc1` (stereo not drawn) the IC50 was 318 nM (fluorescence).
The IC50 of `NC(=O)N/N=C/c1ccccc1OCc1ccccc1` is reported as > 40000 nM (absorbance).
`O=C1c2ccccc2N(Cc2cccc(Br)c2)C12CCCC2` gave an IC50 of 3020 nM.
For `S=C(N/N=C/c1ccc(OCc2ccccc2)cc1)Nc1ccccc1`, the IC50 was 8220 nM (absorbance).
`O=C(/C=C/c1ccccc1)c1cc2ccccc2oc1=O` gave an IC50 of 690 nM.
`O=C1c2cc(Cl)ccc2N(Cc2ccccc2)C12CCCC2` has an IC50 of 5760 nM.
`O=C(/C=C/c1cccc(F)c1)c1cc2ccccc2oc1=O` has an IC50 of 3610 nM.
For `NC(=S)N/N=C/c1ccc(OCc2ccccc2)cc1`, the IC50 was 110 nM (absorbance).
